Experimental data pooled from the literature.
Each line is one published result; not all experiments were run side by side.
Cell line: HOP-62

SMILES = O=C(CSc1nnc(-c2ccccc2)o1)N1CCC(=C2c3ncccc3CCc3cc(Cl)cc(Br)c32)CC1; read-out = cell growth or viability; method = SRB; quantity = IC50; value = > 120 µM
SMILES = COc1cc(CNC(=O)C[C@H](C)CCC=C(C)C)ccc1OCc1cn(-c2cccc(C(F)(F)F)c2)nn1; method = SRB; concentration = 10 µM; time = 48 h; quantity = growth percent; value = 88.8%
SMILES = Clc1cc(Br)c2c(c1)CCc1cccnc1C2=C1CCNCC1; read-out = cell growth or viability; method = SRB; quantity = IC50; value = 27 µM
SMILES = CC(=O)OC[C@H]1O[C@@H](Sc2sc(C(=O)c3ccc(C)cc3)c(N)c2-c2nc3ccccc3s2)[C@H](OC(C)=O)[C@@H](OC(C)=O)[C@H]1OC(C)=O; method = SRB; concentration = 10 µM; time = 48 h; relative to = untreated; quantity = growth; value = 86.1%
SMILES = COc1ccc(C2=Nn3c(NN=C4C(=O)N(Cc5ccccc5)c5ccc(Cl)cc54)nnc3SC2)cc1; read-out = cell growth or viability; method = SRB; concentration = 10 µM; quantity = inhibition; value = 37%
SMILES = CC(Cc1ccc(Cl)cc1)=C(c1ccc(Cl)cc1)c1ccc(OCCN(C)C)cc1; read-out = cell growth or viability; method = SRB; quantity = GI50; value = 6.07 µM
SMILES = CC/C=C\C/C=C\C/C=C\C/C=C\C/C=C\C/C=C\CCC(=O)Nc1ccn(C2OC(CO)C(O)C2(F)F)c(=O)n1 (stereo not drawn); method = NCI60 screen; quantity = TGI; value = 4.47 µM
SMILES = Nn1c(SCC(=O)N2CCC(=C3c4ncccc4CCc4cc(Cl)cc(Br)c43)CC2)nnc1-c1ccccc1; read-out = cell growth or viability; method = SRB; quantity = IC50; value = 53 µM
SMILES = COc1cc(CNC(=O)C[C@H](C)CCC=C(C)C)ccc1OCc1cn(-c2ccc([N+](=O)[O-])cc2)nn1; method = SRB; concentration = 10 µM; time = 48 h; quantity = growth percent; value = 104%
SMILES = CC(=O)OC[C@H]1O[C@@H](Sc2sc(C(=O)c3ccc(Br)cc3)c(N)c2-c2nc3ccccc3s2)[C@H](OC(C)=O)[C@@H](OC(C)=O)[C@@H]1OC(C)=O; method = SRB; concentration = 10 µM; time = 48 h; relative to = untreated; quantity = growth; value = 63.8%
SMILES = O=C(CN1CCN(c2nsc3ccccc23)CC1)N1CCC(=C2c3ncccc3CCc3cc(Cl)cc(Br)c32)CC1; read-out = cell growth or viability; method = SRB; quantity = IC50; value = 60 µM
SMILES = COc1cc(CNC(=O)C[C@H](C)CCC=C(C)C)ccc1OCc1cn(-c2ccccc2F)nn1; method = SRB; concentration = 10 µM; time = 48 h; quantity = growth percent; value = 46.7%

Repeated from above:
SMILES = Nn1c(SCC(=O)N2CCC(=C3c4ncccc4CCc4cc(Cl)cc(Br)c43)CC2)nnc1-c1ccccc1; read-out = cell growth or viability; method = SRB; quantity = IC50; value = 53 µM
